Results pooled from the literature.
Protocols differ between the studies behind these lines. Several values in a cell are separate wells, animals, samples, runs or records. Numbers after ± are the reported error.

`C#CCNC(=O)C[C@H](Cc1ccc(F)cc1)NC(=O)[C@@H](Cc1ccc(Cl)cc1Cl)NC(=O)[C@H](N)Cc1ccccc1C#N` gave a cytosolic concentration of 10 µM and 9.1 µM and 10.5 µM (HEK-293T; LC-MS, digitonin-released cytosol; 10 µM, 4 h).
For `COc1cc(OC)cc([C@@H]2c3cc(/C=C/c4cc(O)cc(O)c4)ccc3O[C@H]2c2ccc(O)cc2)c1`, the CC50 was 784 µM (dog cells; 1 (unit not given)).
`CCN(CCCCOc1ccc(CCC(=O)N2CCC(Cc3ccccc3)CC2)cc1OC)Cc1ccccc1` has a Papp(B-A) of 11.5 ± 2.72 ×10⁻⁶ cm/s (Caco-2 monolayer; 40 µM, 120 min).
The hemolysis of `CN(C)CCCNC(=O)[C@@H]1NC(=O)[C@@H]2Cc3ccc(cc3)Oc3cc4cc(c3O)-c3ccc5c(c[nH]c5c3)C[C@@H](NC(=O)C(NC(=O)CCCCCN)c3ccc(O)cc3)C(=O)N[C@H](c3ccc(O)cc3)C(=O)N[C@H]4C(=O)N[C@@H](C(=O)N2C)c2ccc(cc2)Oc2cc1ccc2O` (some centres unmarked) is reported as 0.47% (human red blood cells; 4 µg/mL, 1 h, 37 °C, 1% DMSO).
With `COc1ccccc1-c1n[nH]c2nc(NC3CCN(C(=O)Cc4ccc(F)cc4F)CC3)ncc12` the relative abundance was 1.23 (bead binding, competition bead pull-down, measured: LINJ.26.0840; Leishmania donovani axenic amastigote extract; 10 µM; reference: vehicle).
`COc1cc(/C=C/C(=O)Oc2cc(C(F)(F)F)ccc2C(F)(F)F)ccc1O` has a subcytotoxic concentration of 10 µM (HaCaT; MTT; 24 h, 10% FBS).
`CC(C)Cc1ccc(C(C)C(=O)[O-])cc1.CC(C)Cc1ccc(C(C)C(=O)[O-])cc1.[Cu+2].c1ccncc1.c1ccncc1` (centres unmarked) has an IC50 of > 100 µM (MRC5; cytotoxicity, MTT; 48 h).
For `CC[C@H](C)[C@H](NC(=O)[C@@H](NC(=O)[C@H](CCCCN)NC(=O)[C@H](CCC(N)=O)NC(=O)[C@@H](NC(=O)[C@H](Cc1c[nH]c2ccccc12)NC(=O)[C@H](CCCCN)NC(=O)[C@H](CCCCN)NC(=O)[C@H](CC(C)C)NC(=O)[C@H](CCCNC(=N)N)NC(=O)[C@H](Cc1ccccc1)NC(=O)[C@@H](N)C(C)C)[C@@H](C)CC)C(C)C)C(N)=O`, “minimum haemolytic concentration” read 210 µM (sheep red blood cells; 10% haemolysis; 1 h, 37 °C).
For `CC(C)(C)[Si](C)(C)OC[C@H]1O[C@@H](n2cc(I)c(=O)[nH]c2=O)[C@H](I)[C@@H](O[Si](C)(C)C(C)(C)C)[C@@H]1O[Si](C)(C)C(C)(C)C`, the CC50 was 9.25 µM (Vero; MTT; DMEM with 10% FBS; 72 h).
`CC[C@H](C)[C@H](NC(=O)[C@H](CCCCN)NC(=O)[C@H](CC(N)=O)NC(=O)CNC(=O)[C@@H](NC(=O)[C@H](C)NC(=O)[C@H](CCCNC(=N)N)NC(=O)[C@H](CC(C)C)NC(=O)[C@H](CCCCN)NC(=O)[C@H](CCCCN)NC(=O)[C@H](CCCCN)NC(=O)[C@H](C)NC(=O)[C@H](CCCCN)NC(=O)[C@@H]1CSSC[C@H](NC(=O)[C@H](CCCNC(=N)N)NC(=O)CN)C(=O)N[C@@H](CC(N)=O)C(=O)N[C@@H](CC(C)C)C(=O)N[C@@H](CC(C)C)C(=O)N1)C(C)C)C(=O)N[C@@H](CCCCN)C(=O)N[C@@H](CCC(=O)O)C(=O)N[C@H](C(=O)N[C@@H](CCCCN)C(=O)N[C@@H](CC(N)=O)C(=O)N[C@H](C(=O)N[C@H](C(=O)N[C@@H](Cc1ccccc1)C(=O)N[C@@H](CC(N)=O)C(=O)N[C@@H](CCCNC(=N)N)C(=O)O)C(C)C)C(C)C)[C@@H](C)CC` gave a hemolysis of -5.14 ± 3.45% (human erythrocytes; 5 µM, 30 min, 37 °C; reference: Triton X-100).
With `CC(=O)NCC(=O)N[C@@H](CCCNC(=N)N)C(=O)N[C@@H](CCCCN)C(=O)N[C@@H](CCCCN)C(=O)N[C@@H](CCCNC(=N)N)C(=O)N[C@@H](CCCNC(=N)N)C(=O)N[C@@H](CCC(N)=O)C(=O)N[C@@H](CCCNC(=N)N)C(=O)N[C@@H](CCCNC(=N)N)C(=O)N[C@@H](CCCNC(=N)N)C(=O)N1CCC[C@H]1C(=O)N[C@@H](CCC(N)=O)C(N)=O` the concentration was 22.4 nM and 37.8 nM and 33.5 nM (HEK-293T; subcellular fractionation LC-MS; nuclear fraction; 20 µM, 2 h).
`CC[C@H](C)[C@H](N)C(=O)N[C@@H](CCCNC(=N)N)C(=O)N[C@H](C(=O)N[C@@H](Cc1c[nH]c2ccccc12)C(=O)N[C@@H](CCCCN)C(=O)N[C@@H](CCCCN)C(=O)N[C@H](C(=O)N[C@H](C(=O)N[C@@H](CCCNC(=N)N)C(=O)N[C@@H](CCCCN)C(=O)N[C@@H](Cc1c[nH]c2ccccc12)C(=O)N[C@@H](CCCCN)C(=O)N[C@@H](C)C(=O)N[C@H](C(=O)N[C@@H](Cc1c[nH]c2ccccc12)C(=O)N[C@@H](Cc1c[nH]cn1)C(N)=O)[C@@H](C)CC)C(C)C)[C@@H](C)CC)C(C)C` has a hemolysis of 9.3 ± 0.3% (rat erythrocytes; 200 µM, 60 min, 37 °C).
For `O=C1NC2(CC2)COc2ncc(F)cc2[C@H]2COCCN2c2ccn3ncc1c3n2`, “organ-to-brain weight ratio” read 58.8 ± 2.68% (Sprague-Dawley rat, female, heart; oral, 20 mg/kg/day, 4 weeks dosing, end of recovery).
With `COC(=O)/C=C/c1ccc(O)c(O)c1` the subcytotoxic concentration was 50 µM (HaCaT; MTT; 24 h, 10% FBS).
With `CC(C)(C)C(=O)OCOP(=O)(OCOC(=O)C(C)(C)C)C1CCCN(O)C1=O` (centres unmarked) the GI50 was 314 nM (Hs-578T).
For `CC[C@H](C)[C@H](NC(=O)[C@H](C)NC(=O)[C@H](CCCCN)NC(=O)[C@H](CCCCN)NC(=O)[C@@H](N)CCCNC(=N)N)C(=O)N[C@@H](CCCCN)C(=O)N[C@@H](CC(C)C)C(=O)N[C@H](C(=O)N[C@@H](CCCCN)C(=O)N[C@@H](CCCCN)C(=O)N[C@@H](CC(C)C)C(=O)N[C@H](C(=O)N[C@@H](CCCCN)C(=O)N[C@@H](CCCCN)C(=O)N[C@@H](CC(C)C)C(=O)N[C@@H](CCCCN)C(=O)N[C@@H](CCCCN)C(=O)N[C@@H](C)C(=O)N[C@@H](CC(C)C)C(=O)N[C@@H](CCCCN)C(=O)O)C(C)C)C(C)C`, the cell growth was 76.5% and 72.2% and 75.4% (HeLa; MTT; 32 mg/L; reference: untreated).
With `CCOc1ccc(CN2CC[C@H]2C(=O)NC)cc1-c1cccc(C(=O)NC[C@@H]2COC(C)(C)O2)c1` the viability was 0.934 and 1.01 and 0.861 (Huh-7-ACE2; CellTiter-Glo; 0.0122 µM, 48 h, unit not given; reference: DMSO).
`CC[C@H](C)[C@H](NC(=O)[C@@H]1CCCN1C(=O)CNC(=O)[C@H](CC(C)C)NC(=O)[C@H](CCCCN)NC(=O)[C@H](CCCNC(=N)N)NC(=O)[C@H](Cc1c[nH]c2ccccc12)NC(=O)[C@H](C)NC(=O)[C@H](CC(N)=O)NC(=O)[C@H](CCCCN)NC(=O)[C@H](CC(C)C)NC(=O)[C@H](CCCCN)NC(=O)[C@H](CC(N)=O)NC(=O)[C@H](CCCNC(=N)N)NC(=O)[C@H](C)NC(=O)[C@H](CCCNC(=N)N)NC(=O)[C@H](CCCNC(=N)N)NC(=O)[C@H](Cc1ccccc1)NC(=O)[C@H](Cc1c[nH]c2ccccc12)NC(=O)CN)C(=O)N[C@H](C(=O)NCC(=O)N1CCC[C@H]1C(=O)N[C@@H](CC(C)C)C(=O)N[C@@H](CC(C)C)C(=O)N[C@H](C(=O)N[C@@H](CCCNC(=N)N)C(=O)O)[C@@H](C)O)C(C)C` gave an HC50 of 3.05 log10 µg/mL (rat erythrocytes; haemolysis; 1 h, 37 °C, 2% erythrocytes in PBS).
For `CC1CCC(C(C)(C)C(=O)Nc2ccc(Oc3ccccc3)cc2)CC1` (centres unmarked), the IC50 was > 12.5 µM (BaF3; cell growth or viability, ATP luminescence; 72 h).
With `CC[C@H](C)[C@H](NC(=O)[C@H](C)NC(=O)[C@H](CCCCN)NC(=O)[C@H](CC(C)C)NC(=O)[C@@H](N)Cc1ccccc1)C(=O)N[C@@H](CCCCN)C(=O)N[C@@H](CCCCN)C(=O)N[C@@H](Cc1ccccc1)C(=O)NCC(=O)N[C@@H](CCCCN)C(=O)N[C@@H](CCC(=O)O)C(=O)N[C@@H](Cc1ccccc1)C(=O)N[C@@H](CCCCN)C(=O)N[C@@H](CCCCN)C(=O)N[C@H](C(=O)NCC(=O)N[C@@H](C)C(=O)N[C@@H](CCCCN)C(=O)N[C@@H](CC(C)C)C(=O)N[C@@H](CCCCN)C(=O)O)[C@@H](C)CC` the viability was 92.4% (HeLa; cell growth or viability, MTT; 16 µg/mL).
With `COc1ccc2nc3cc(Cl)ccc3c(NCCNC(C)=C3C(=O)C=C4Oc5c(C(C)=O)c(O)c(C)c(O)c5C4(C)C3=O)c2c1` (centres unmarked) the IC50 was 9.6 µM (L6 rat skeletal myoblasts; cytotoxicity, Alamar Blue).
For `CC[C@H](C)[C@H](NC(=O)[C@@H](NC(=O)[C@H](CCCCN)NC(=O)[C@H](CCCCN)NC(=O)[C@@H](NC(=O)[C@H](Cc1c[nH]c2ccccc12)NC(=O)[C@H](CCCCN)NC(=O)[C@@H](NC(=O)[C@H](CC(C)C)NC(=O)[C@H](CCCCN)NC(=O)[C@H](CCCCN)NC(=O)[C@@H](N)C(C)C)[C@@H](C)CC)[C@@H](C)CC)C(C)C)C(N)=O`, “minimum haemolytic concentration” read 182 µM (sheep red blood cells; 10% haemolysis; 1 h, 37 °C).
`CNC(=O)CC1CN(C(=O)c2ccc(C(F)(F)F)cn2)CCN1C(=O)c1cccnn1` (centres unmarked) gave a viability of 1.06 and 1 and 1.02 (Huh-7-ACE2; CellTiter-Glo; 0.0244 µM, 48 h, unit not given; reference: DMSO).

Some of these lines once more:
With `COc1ccccc1-c1n[nH]c2nc(NC3CCN(C(=O)Cc4ccc(F)cc4F)CC3)ncc12` the relative abundance was 1.23 (bead binding, competition bead pull-down, measured: LINJ.26.0840; Leishmania donovani axenic amastigote extract; 10 µM; reference: vehicle).
`CC[C@H](C)[C@H](NC(=O)[C@H](CCCCN)NC(=O)[C@H](CC(N)=O)NC(=O)CNC(=O)[C@@H](NC(=O)[C@H](C)NC(=O)[C@H](CCCNC(=N)N)NC(=O)[C@H](CC(C)C)NC(=O)[C@H](CCCCN)NC(=O)[C@H](CCCCN)NC(=O)[C@H](CCCCN)NC(=O)[C@H](C)NC(=O)[C@H](CCCCN)NC(=O)[C@@H]1CSSC[C@H](NC(=O)[C@H](CCCNC(=N)N)NC(=O)CN)C(=O)N[C@@H](CC(N)=O)C(=O)N[C@@H](CC(C)C)C(=O)N[C@@H](CC(C)C)C(=O)N1)C(C)C)C(=O)N[C@@H](CCCCN)C(=O)N[C@@H](CCC(=O)O)C(=O)N[C@H](C(=O)N[C@@H](CCCCN)C(=O)N[C@@H](CC(N)=O)C(=O)N[C@H](C(=O)N[C@H](C(=O)N[C@@H](Cc1ccccc1)C(=O)N[C@@H](CC(N)=O)C(=O)N[C@@H](CCCNC(=N)N)C(=O)O)C(C)C)C(C)C)[C@@H](C)CC` gave a hemolysis of -5.14 ± 3.45% (human erythrocytes; 5 µM, 30 min, 37 °C; reference: Triton X-100).
